# Experimental data pooled from the literature.
# Each numbered part is a random draw from the data of one study; scales do not carry over between parts. ± marks the error that the study gave.

# Block 1
# Organism: SARS-CoV-2 Wuhan spike VSV pseudovirus
# Read-out: pseudovirus entry
# Tested at: 10 µM
SMILES,inhibition
Cc1nn(C)c2c(=O)n(C(C)C(=O)Nc3ccc(N4CCOCC4)cc3)ccc12 (stereo not shown),86%
O=c1c(Cl)c(Cl)cnn1Cc1ccccc1Br,54%
Fc1ccc(NC2=NCCCCC2)cc1,66%
COc1ccc(C(CC(=O)NCc2ncc[nH]2)c2ccccc2)cc1 (stereo not shown),73%
CCN(CCCNC(=O)c1ccc(Nc2ccnc(-c3ccc(F)cc3)n2)cc1)Cc1ccccc1,75%
Cc1ccc(N2N=C(C(=O)NCc3ccccc3F)S(=O)(=O)c3cccnc32)cc1,82%
CCCN(CCC)C(=O)c1c[nH]c2ccc(S(=O)(=O)N(C)c3ccccc3OCC)cc2c1=O,64%
CC(C)CC(NC(=O)c1cn2ccsc2n1)c1nnc2n1CCNCC2 (stereo not shown),100%
Cc1ccc(NC(=O)C(C)Oc2cc(C)nc(N3CCN(c4ccccc4)CC3)n2)cc1 (stereo not shown),81%
CC(C)C[C@H](NC(=O)[C@H](Cc1ccccc1)NC(=O)c1cnccn1)B(O)O,93%
c1cc(-c2noc(CSc3nnnn3C3CC3)n2)cs1,68%

# Single results of other studies
# rep nsp12 RdRp: Replicase polyprotein 1ab, nsp12 RdRp (rep, Severe acute respiratory syndrome coronavirus 2, UniProt P0DTD1)
# rep papain-like protease: Replicase polyprotein 1ab, papain-like protease (rep, Severe acute respiratory syndrome coronavirus 2, UniProt P0DTD1)
# rep nsp14: Replicase polyprotein 1ab, nsp14 (rep, Severe acute respiratory syndrome coronavirus 2, UniProt P0DTD1)
SMILES,tested on,test,system,conditions,scale,quantity,result
CC(C)=CCNc1ncnc2c1ncn2[C@@H]1O[C@H](CO)[C@@H](O)[C@H]1O,SARS-CoV-2,viral replication,"Vero C1008, Omicron BA.1","48 h, reduction of infectious virus",,EC90,1500 ± 60 nM
CS(=O)(=O)c1cccc(CNc2nc(Nc3ccc4c(c3)CCC(=O)N4)ncc2C(F)(F)F)c1,rep nsp12 RdRp,"binding, biolayer interferometry",,concentration not given,,BLI response,0 nm
CC(=O)NO,rep papain-like protease,,,"concentration not given, C111S mutant",baseline: positive control,activity,20.4%
N#C[C@@]1(n2ccc(N)nc2=O)O[C@H](CO)[C@@H](O)[C@H]1O,SARS-CoV-2 Omicron,viral replication,Calu-3,,,EC90,3800 ± 1400 nM
COc1ccc2c(c1O)-c1c(OC)c(OC)cc3c1[C@H](C2)N(C)CC3.Cl,rep papain-like protease,,,"concentration not given, C111S mutant",baseline: positive control,activity,23%
CCC(CC)COC(=O)[C@H](C)N[P@](=O)(OC[C@H]1O[C@@](C#N)(c2ccc3c(N)ncnn23)[C@H](O)[C@@H]1O)Oc1ccccc1,SARS-CoV-2,viral replication,"Vero, Beta",,,EC50,700 ± 600 nM
NC(=O)c1ccc[n+]([C@@H]2O[C@H](COP(=O)([O-])OP(=O)(O)OC[C@H]3O[C@@H](n4cnc5c(N)ncnc54)[C@H](O)[C@@H]3O)[C@@H](O)[C@H]2O)c1,rep nsp12 RdRp,"binding, biolayer interferometry",,concentration not given,,BLI response,-0.01 nm
Nc1ncnc2c1ncn2[C@@H]1O[C@H](CSCC[C@H](N)C(=O)O)[C@@H](O)[C@H]1O,rep nsp14,thermal shift,,15.63 µM,,ΔTm,7.2 °C
CCC(CC)[C@H](NC(C)=O)[C@@H]1[C@H](O)[C@@H](C(=O)O)C[C@H]1N=C(N)N,"neuraminidase (Influenza B virus, UniProt A0A1S5RAG6, I221V)",,,,,IC50,4.8 ± 0.9 nM
O=C(NC1CCN(c2ncnc3[nH]cnc23)CC1)c1cccc(S(=O)(=O)N2CCCCC2)c1,rep nsp14,"NSP14 enzyme activity, inhibitor",,3.125 µM,,inhibition,20%
CC(C)C(=O)OC[C@H]1O[C@@H](n2ccc(NO)nc2=O)[C@H](O)[C@@H]1O,SARS-CoV-2,viral RNA copies,"Vero C1008, Omicron BA.1",48 h,,EC50,2710 ± 110 nM

# A few entries again (block 1):
SMILES,inhibition
Cc1ccc(N2N=C(C(=O)NCc3ccccc3F)S(=O)(=O)c3cccnc32)cc1,82%
